Measurements from different studies.
Each numbered part is a random draw from the data of one study; scales do not carry over between parts. Positions count from the first letter of the parent shown.
UniProt P07948, sequence (whole entry, looked up): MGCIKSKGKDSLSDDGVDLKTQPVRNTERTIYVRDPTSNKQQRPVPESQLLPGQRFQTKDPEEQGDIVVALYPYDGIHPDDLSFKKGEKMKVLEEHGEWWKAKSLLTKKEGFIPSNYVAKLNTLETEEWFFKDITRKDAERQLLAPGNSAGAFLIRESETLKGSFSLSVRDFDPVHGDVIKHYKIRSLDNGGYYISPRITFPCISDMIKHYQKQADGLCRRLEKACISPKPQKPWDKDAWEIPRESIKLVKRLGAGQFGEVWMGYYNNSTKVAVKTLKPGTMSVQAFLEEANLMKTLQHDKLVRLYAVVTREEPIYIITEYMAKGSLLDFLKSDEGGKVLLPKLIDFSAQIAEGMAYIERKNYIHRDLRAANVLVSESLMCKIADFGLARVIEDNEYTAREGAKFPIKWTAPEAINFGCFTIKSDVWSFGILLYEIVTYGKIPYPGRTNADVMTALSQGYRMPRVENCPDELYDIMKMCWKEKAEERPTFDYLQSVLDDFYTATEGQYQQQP
UniProt P29376, sequence (whole entry, looked up): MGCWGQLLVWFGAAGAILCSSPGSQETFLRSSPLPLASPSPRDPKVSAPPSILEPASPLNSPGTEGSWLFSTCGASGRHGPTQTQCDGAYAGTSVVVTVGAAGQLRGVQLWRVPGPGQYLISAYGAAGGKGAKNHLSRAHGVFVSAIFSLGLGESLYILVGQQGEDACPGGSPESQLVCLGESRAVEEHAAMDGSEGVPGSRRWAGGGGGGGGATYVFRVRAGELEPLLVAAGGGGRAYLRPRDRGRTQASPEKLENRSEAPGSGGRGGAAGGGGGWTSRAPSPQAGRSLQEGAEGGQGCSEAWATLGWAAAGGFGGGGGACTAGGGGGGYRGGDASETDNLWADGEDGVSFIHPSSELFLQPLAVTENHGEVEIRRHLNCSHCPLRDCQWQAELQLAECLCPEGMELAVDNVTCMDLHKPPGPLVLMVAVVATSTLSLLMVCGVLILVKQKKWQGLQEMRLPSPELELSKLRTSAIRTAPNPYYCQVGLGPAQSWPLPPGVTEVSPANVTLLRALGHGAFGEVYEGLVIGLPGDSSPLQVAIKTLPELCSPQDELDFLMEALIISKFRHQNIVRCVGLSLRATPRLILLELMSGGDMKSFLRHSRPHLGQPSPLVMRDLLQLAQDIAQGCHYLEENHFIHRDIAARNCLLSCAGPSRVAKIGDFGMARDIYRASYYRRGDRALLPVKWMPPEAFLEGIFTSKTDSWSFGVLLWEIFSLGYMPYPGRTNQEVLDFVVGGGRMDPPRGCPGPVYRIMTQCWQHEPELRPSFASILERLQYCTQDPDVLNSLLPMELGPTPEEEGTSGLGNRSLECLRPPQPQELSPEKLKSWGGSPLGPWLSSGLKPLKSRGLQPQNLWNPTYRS

Sample 1
Target: CCNA2, cyclin fold, Cln2 fusion (human)
Technique: yeast growth competition, sequencing
Matrix: yeast
Setting: strong parent motif
Relative to: not given
Direction: higher = stronger binding
Quantity: normalised enrichment score
Starting sequence: viral docking peptide; YKVKRRLVFGADD
YKVKSRLVFGADD [R5S]: 1.48
YKVKRRLVYGADD [F9Y]: 6.54
YKFKRRLVFGADD [V3F]: 5.9
YKSKRRLVFGADD [V3S]: 6.29
YKVKIRLVFGADD [R5I]: 3.45
YKVKRRLVAGADD [F9A]: -0.125
YYVKRRLVFGADD [K2Y]: 5.83
YKVKRMLVFGADD [R6M]: 6.16

Sample 2
Target: tungstate, free oxyanion
Technique: microfluidic competitive inhibition
Matrix: in vitro, cell-free expressed
Tested at: not given
Setting: derived from inhibition constants, unchanged parent 2230 nM
Direction: lower = stronger binding
Quantity: oxyanion analog dissociation constant
Starting sequence: PafA, mature enzyme, eGFP fusion (Elizabethkingia meningoseptica, UniProt Q9KJX5); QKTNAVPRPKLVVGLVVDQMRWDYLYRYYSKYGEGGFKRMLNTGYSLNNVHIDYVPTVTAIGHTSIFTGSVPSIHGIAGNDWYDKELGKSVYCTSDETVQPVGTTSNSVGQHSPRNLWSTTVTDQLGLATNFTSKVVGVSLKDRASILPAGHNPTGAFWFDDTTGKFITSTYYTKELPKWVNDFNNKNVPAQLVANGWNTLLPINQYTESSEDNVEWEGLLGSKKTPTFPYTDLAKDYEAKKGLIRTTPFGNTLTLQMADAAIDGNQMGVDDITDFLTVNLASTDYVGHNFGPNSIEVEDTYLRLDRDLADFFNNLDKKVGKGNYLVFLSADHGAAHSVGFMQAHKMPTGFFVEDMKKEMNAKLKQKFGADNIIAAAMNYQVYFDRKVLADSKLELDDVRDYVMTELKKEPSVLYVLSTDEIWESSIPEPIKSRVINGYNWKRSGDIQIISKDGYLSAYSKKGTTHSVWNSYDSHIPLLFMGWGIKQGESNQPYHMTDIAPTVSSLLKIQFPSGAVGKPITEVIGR
V435G: 1.22 µM
L41V: 2.36 µM
I74G: 633 nM
D332G: 18.3 µM
S210V: 2.88 µM
V503G: 1.75 µM
S460G: 1.53 µM
K432G: 1.08 µM

Single results of other studies
Cc1nc(Nc2ncc(C(=O)Nc3c(C)cccc3Cl)s2)cc(N2CCN(CCO)CC2)n1  inhibition (Leukocyte tyrosine kinase receptor (LTK, Homo sapiens, UniProt P29376); 1 µM): < 50%
N/C(=N\[N+](=O)[O-])N/N=C\c1ccc(-c2cccc([N+](=O)[O-])c2)o1  remaining activity (Tyrosine-protein kinase Lyn, isoform B (LYN, Homo sapiens, UniProt P07948); enzyme activity, inhibitor; 0.5 µM; relative to: control): 99.4%

Repeated from above (sample 1):
YKVKRMLVFGADD [R6M]: 6.16
